Results of several laboratories.
Compare with care: the assays were run in different laboratories. Values joined by “and” are separate records of one study, mostly repeats; a detail may differ.
Target: Protein kinase C gamma type (PRKCG, Homo sapiens, UniProt P05129)

`COc1c(OCCCN2CCOCC2)ccc2c1N=C(NC(=O)c1cnc(N)nc1)N1CCN=C21` gave a remaining activity of 103% (kinase activity, inhibitor; 1 µM; reference: untreated control).
`COCC12C(=O)NC3C4(C(OC)CC1O)C1CC5(O)C(OC)C(O)C(OC(C)=O)(C1C5OC(=O)c1ccccc1)C3(O)C(OC)C24` (stereo not shown) gave a remaining activity of 115% and 112% (kinase activity, inhibitor, ProQinase kinase profiling; 25 µM; reference: control).
`O=C=[N][Ru-4]123([n]4c5ccc(O)cc5c5c6c(c7cc(F)c[n+]1c7c54)C(=O)NC6=O)[S+]1CC[S+]2CC[S+]3CC1` (stereo not shown) gave a remaining activity of 99% (enzyme activity; 100 nM, human enzyme, together with: 10 µM ATP; reference: untreated).
`C=CC(=O)Nc1cccc(-c2cnc3[nH]cc(C(=O)NC(C)(C)C)c3n2)c1` has an inhibition of 29% and 32% (kinase activity; 0.1 µM).
Under “activity vs control”, `O=C(Cc1ccc(OCc2ccccc2)cc1)NC1(C(=O)O)CCN(C(=O)c2ccc(-c3cccc(Cl)c3)cc2)CC1` is recorded as 99% (enzyme activity, inhibitor; 10 µM).
The remaining activity of `O=c1c(-c2ccc(Cl)c(CN3CCOCC3)c2)coc2cc(O)ccc12` is reported as 100% (enzyme activity, inhibitor; 1 µM).
For `CN1CC[C@@H](COc2cnc(C#N)cc2-c2ccn3nc(NC(=O)C4CC4)cc3c2)C1`, the inhibition was -9% (enzyme activity, inhibitor; 1 µM).
The remaining activity of `COc1ccc(NC(=O)Nc2ccc3c(c2)C(=O)N(C(C)CO)CC(C)C(CN(C)Cc2ccc4c(c2)OCO4)O3)cc1` (stereo not shown) is reported as 87% (kinase activity, KinaseProfiler; 0.03 µM, species human; reference: control).
`CNC(=O)C[C@H](Cc1ccc(C#N)cc1)NC(=O)c1cc(-c2ccc(CN[C@H](C)c3ccc(C)cc3)o2)ccc1Cl` — result for “activity vs control”: 105% (enzyme activity, inhibitor; 1 µM).
`CN1CCN(Cc2ccc(-c3ccc(CO[C@H]4CCC[C@@H]4NC(=O)c4cc(-c5cnn(C)c5)cnc4N)cc3)cc2)CC1` has an inhibition of 17% (enzyme activity, inhibitor; 0.1 µM).
`NC(=O)[C@@H](O)C[C@H]1CCc2sc3ncnc(O[C@H]4CC[C@H](N5CCOCC5)CC4)c3c21` has an inhibition of 1% (enzyme activity, inhibitor; 10 µM).
The inhibition of `C=CC(=O)N1Cc2nc(-c3cc(-c4cc(Cl)cnc4Cl)c(F)cc3F)n(-c3ccncn3)c2C1` is reported as 2.3% (cell-free assay; 1 µM).
With `Nc1ncc(-c2cc(-c3cnn(CC(F)(F)F)c3)ncc2F)nc1C(=O)NC1CNCC(F)C1` (stereo not shown) the remaining activity was 74.6% (enzyme activity; 1 µM; reference: DMSO control).
`Cc1cccc(O[C@H]2CCC[C@@H](C(C)CNCc3ccncc3)C2)c1` (relative stereo) gave an inhibition of 3% (enzyme activity; 1 µM).
The inhibition of `NC(=O)C[C@H]1CCc2sc3ncnc(O[C@H]4CC[C@H](N5CCOCC5)CC4)c3c21` is reported as 6% (enzyme activity, inhibitor; 10 µM).
The inhibition of `CCn1cc(C(=O)O)c(=O)c2c(N)c(F)c(NC3CCCCC3)cc21` is reported as 16.9% (kinase activity; 0.1 µM, together with: ATP at Km).

Some of these lines once more:
The inhibition of `NC(=O)C[C@H]1CCc2sc3ncnc(O[C@H]4CC[C@H](N5CCOCC5)CC4)c3c21` is reported as 6% (enzyme activity, inhibitor; 10 µM).
